Published values from different studies.
± gives the spread as reported.
B1: enzyme (Toxoplasma gondii, UniProt S8EY38); chain ARKTNIEAYRDGLKLKTEEDFFACDRQYVCQNYAPVPVVISKGKGARVWDINGNEYYDFLAGVSSLSQGHCHPRVIAALCRQAERLTLTLRAFGNDVTGPACRFMAEMFGYDRVLLMNTGAEAGESALKIARKWAYEVKEIPPDSAKVILCNNNYWGRTITACSSSTTFDCYNNFGPFTPGFELIDYDDVGALEEALKDPNVAAFFVEPIQGEGGVNVPKPGYLKRAHELCRSKNVLLIVDEIQTGLCRTGRLLAADHDEVHPDILLLGKSLSAGVVPISAVMGRADVMDVLKPGTHGSTFGGNPLACAVAVEALTVLKDEKLADRAERLGAQFRDCLRRELYGKVPWIKEIRGRGLLNAVEVDSDAIDPNDVVMKLKENGILSKPTRGRVMRFIPPLVITDEEHRDATTRIIKSFLAVEEERKK
B2: enzyme S252E/S281E/S285E/S287E (Schizosaccharomyces pombe, UniProt P78804); chain MSTPYEPEFQQAYKEIVGSIESSKLFEVHPELKRVLPIISIPERVLEFRVTWEDDKGNCRVNTGYRVQFNSALGPYKGGLRFHPSVNLSILKFLGFEQIFKNALTGLPMGGGKGGSDFDPKGKSDNEIRRFSQAFMRQLFRYIGPQTDVPAGDIGVTGFVVMHMFGEYKRLRNEYSGVVTGKHMLTGGSNIRPEATGYGVVYYVKHMIEHRTKGAETLKGKRVAISGSGNVAQYAALKCIQEGAIVKSISDEKGVLIAKTAEGLVPEEIHEIMALKEKRAEIADEAELCKKHHYIAGARPWTNVGEIDIALPCATQNEVSGEEAAALIKQGCRYVAEGSNMGSSAEAVEVFEKSRASGEGCWLAPGKAANAGGVAVSGLEMAQNAQFSTWTHAEVDAKLAGIMQNIFEQSTDVASKYCDSGSNNIPSLVDGANIAGFLKVATAMQAVGDWW
B3: enzyme (Methylibium petroleiphilum, UniProt A2SL37); chain PIIQMNLLEGRTVEQKRNAVAAITEAVVRTLDVRPDQVRILINELGVEHFSVAGQTAAMRQAAAANAKDL
B4: enzyme (Escherichia coli, UniProt P69937); chain MSWIILVIAGLLEVVWAVGLKYTHGFSRLTPSVITVTAMIVSMALLAWAMKSLPVGTAYAVWTGIGAVGAAITGIVLLGESANPMRLASLALIVLGIIGLKLSTH
B5: PYCR2 R251C (Homo sapiens, UniProt Q96C36); chain MSVGFIGAGQLAYALARGFTAAGILSAHKIIASSPEMNLPTVSALRKMGVNLTRSNKETVKHSDVLFLAVKPHIIPFILDEIGADVQARHIVVSCAAGVTISSVEKKLMAFQPAPKVIRCMTNTPVVVQEGATVYATGTHALVEDGQLLEQLMSSVGFCTEVEEDLIDAVTGLSGSGPAYAFMALDALADGGVKMGLPRRLAIQLGAQALLGAAKMLLDSEQHPCQLKDNVCSPGGATIHALHFLESGGFCSLLINAVEASCIRTRELQSMADQEKISPAALKKTLLDRVKLESPTVSTLTPSSPGKLLTRSLALGGKKD
B6: BGLU7 (Oryza sativa, UniProt Q75I93); chain AAVPKPNWLGGLSRAAFPKRFVFGTATSAYQVEGMAASGGRGPSIWDAFAHTPGNVAGNQNGDVATDQYHRYKEDVNLMKSLNFDAYRFSISWSRIFPDGEGRVNQEGVAYYNNLINYLLQKGITPYVNLYHYDLPLALEKKYGGWLNAKMADLFTEYADFCFKTFGNRVKHWFTFNEPRIVALLGYDQGTNPPKRCTKCAAGGNSATEPYIVAHNFLLSHAAAVARYRTKYQAAQQGKVGIVLDFNWYEALSNSTEDQAAAQRARDFHIGWYLDPLINGHYPQIMQDLVKDRLPKFTPEQARLVKGSADYIGINQYTASYMKGQQLMQQTPTSYSADWQVTYVFAKNGKPIGPQANSNWLYIVPWGMYGCVNYIKQKYGNPTVVITENGMDQPANLSRDQYLRDTTRVHFYRSYLTQLKKAIDEGANVAGYFAWSLLDNFEWLSGYTSKFGIVYVDFNTLERHPKASAYWFRDMLKH
B7: enzyme (Pseudomonas aeruginosa, UniProt Q9I6F6); chain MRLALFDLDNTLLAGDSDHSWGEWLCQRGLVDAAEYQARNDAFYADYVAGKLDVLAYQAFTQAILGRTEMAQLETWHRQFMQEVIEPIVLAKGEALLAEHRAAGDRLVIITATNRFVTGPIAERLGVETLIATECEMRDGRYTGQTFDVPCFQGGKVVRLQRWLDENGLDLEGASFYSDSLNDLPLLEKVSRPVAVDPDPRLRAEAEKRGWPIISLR
UniProt Q93UV0, sequence (whole entry, looked up): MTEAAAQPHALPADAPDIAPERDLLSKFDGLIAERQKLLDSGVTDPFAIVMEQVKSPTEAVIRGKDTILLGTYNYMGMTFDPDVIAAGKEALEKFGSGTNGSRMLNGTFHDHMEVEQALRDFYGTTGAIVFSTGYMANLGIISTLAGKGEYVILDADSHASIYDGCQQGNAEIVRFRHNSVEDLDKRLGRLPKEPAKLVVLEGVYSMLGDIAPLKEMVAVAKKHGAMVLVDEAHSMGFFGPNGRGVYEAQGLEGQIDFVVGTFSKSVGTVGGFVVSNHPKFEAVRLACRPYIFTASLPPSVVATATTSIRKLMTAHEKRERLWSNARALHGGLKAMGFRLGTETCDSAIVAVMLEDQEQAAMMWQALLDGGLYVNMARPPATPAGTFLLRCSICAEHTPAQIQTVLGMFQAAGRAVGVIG
UniProt P30718, sequence (whole entry, looked up): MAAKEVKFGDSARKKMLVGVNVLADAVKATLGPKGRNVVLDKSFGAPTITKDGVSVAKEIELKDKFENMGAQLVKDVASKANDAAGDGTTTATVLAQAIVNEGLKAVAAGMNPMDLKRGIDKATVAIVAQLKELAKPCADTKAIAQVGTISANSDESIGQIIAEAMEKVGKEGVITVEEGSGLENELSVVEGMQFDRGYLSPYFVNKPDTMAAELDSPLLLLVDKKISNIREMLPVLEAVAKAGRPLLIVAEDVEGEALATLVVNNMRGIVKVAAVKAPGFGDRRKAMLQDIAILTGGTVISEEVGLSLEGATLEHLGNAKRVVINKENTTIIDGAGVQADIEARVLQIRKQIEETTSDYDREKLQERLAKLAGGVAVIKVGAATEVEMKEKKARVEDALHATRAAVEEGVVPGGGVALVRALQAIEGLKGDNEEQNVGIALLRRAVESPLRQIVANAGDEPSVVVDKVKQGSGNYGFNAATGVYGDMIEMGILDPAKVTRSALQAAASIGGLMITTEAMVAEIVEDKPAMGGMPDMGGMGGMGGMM

spt (Sphingomonas paucimobilis, UniProt Q93UV0) — Km (CCCCCCCCCCCCCCCC(=O)SCCNC(=O)CCNC(=O)[C@H](O)C(C)(C)COP(=O)(O)OP(=O)(O)OC[C@H]1O[C@@H](n2cnc3c(N)ncnc32)[C@H](O)[C@@H]1OP(=O)(O)O; steady-state kinetics; added: PLP): 41 µM
groEL (Pseudomonas aeruginosa, UniProt P30718) — Km (Nc1ncnc2c1ncn2[C@@H]1O[C@H](COP(=O)(O)OP(=O)(O)OP(=O)(O)O)[C@@H](O)[C@H]1O; steady-state kinetics; pH 7.4, 24 °C, apparent): 70.7 µM
GSGAGSETSV — binding intensity (human MAGI1-3/6 PDZ construct (MBP fusion); automated holdup; peptide, purified PDZ protein; concentration not given, unit not given; reference: biotin control resin, higher = stronger binding): 0.117
AAAGAAAGAAAG (dsDNA) — Kd (Fibroin-modulator-binding protein-1 99-193 (Bombyx mori, UniProt Q5FBS0); ITC; double-stranded DNA, one strand shown): 6.1 ± 0.518 µM
B1 (enzyme) — Km (NCCC[C@H](N)C(=O)O; steady-state kinetics; pH 8, 37 °C): 31000 µM
enzyme (Klebsiella pneumoniae, UniProt A6THV5) — Km (CSCC[C@@H](NC(C)=O)C(=O)O; steady-state kinetics; pH 8, 35 °C): 32100 µM
human retinal dehydrogenase 1 — co-IP enrichment (co-immunoprecipitation; human RBC membrane; DSSO crosslinker, unit not given, added: Band 3 peptide 1-56 bait; reference: negative control): 15
B2 (enzyme S252E/S281E/S285E/S287E) — Km (NC(=O)c1ccc[n+]([C@@H]2O[C@H](COP(=O)(O)OP(=O)(O)OC[C@H]3O[C@@H](n4cnc5c(N)ncnc54)[C@H](O)[C@@H]3O)[C@@H](O)[C@H]2O)c1; steady-state kinetics; pH 7, 30 °C, apparent): 2100 µM
B3 (enzyme) — Km (C/C(=C\C=C(/O)C(=O)O)C(=O)O; steady-state kinetics; pH 7.3, 24 °C): 211 µM
B4 (enzyme) — Km (N=C(N)N; steady-state kinetics; pH 7.5): 1700 µM
LMPFGSLL — binding score (HLA class I histocompatibility antigen, A alpha chain, allele A*01:01 (Homo sapiens, UniProt P04439); conformational ELISA; peptide; concentration not given; reference: positive control peptide, direction not given): 0.1%
GSGAGICTIV — binding intensity (human MAGI1-2/6 PDZ construct (MBP fusion); automated holdup; peptide, crude extract; concentration not given, corrected by standard peak, unit not given; reference: biotin control resin, higher = stronger binding): 0.0828
B5 (PYCR2 R251C) — Km (NC(=O)C1=CN([C@@H]2O[C@H](COP(=O)(O)OP(=O)(O)OC[C@H]3O[C@@H](n4cnc5c(N)ncnc54)[C@H](OP(=O)(O)O)[C@@H]3O)[C@@H](O)[C@H]2O)C=CC1; steady-state kinetics; pH 7.5, 37 °C, apparent, cofactor varied, added: DL-P5C 5000 µM): 119 µM
B6 (BGLU7) — Km (O=[N+]([O-])c1ccc(O[C@@H]2O[C@H](CO)[C@@H](O)[C@H](O)[C@H]2O)cc1; steady-state kinetics; pH 6, 30 °C, not purified): 6470 µM
B7 (enzyme) — Km (N[C@H](COP(=O)(O)O)Cc1c[nH]cn1; steady-state kinetics; pH 7.8, 25 °C): 22 µM
